# Experimental data pooled from the literature.
# Compare with care: the assays were run in different laboratories. ± marks the error that the study gave.
# GPR17 R283I short isoform: Uracil nucleotide/cysteinyl leukotriene receptor, short isoform (GPR17, Homo sapiens, UniProt Q13304, R283I)
# Protein farnesyltransferase: Protein farnesyltransferase (Homo sapiens, UniProt P49354+P49356)
# UGT1A9: UDP-glucuronosyltransferase 1A9 (UGT1A9, Homo sapiens, UniProt O60656)
# CXCR4: C-X-C chemokine receptor type 4 (CXCR4, Homo sapiens, UniProt P61073)
# SLC10A1: Hepatic sodium/bile acid cotransporter (SLC10A1, Homo sapiens, UniProt Q14973)
# Enoyl-[acyl-carrier-protein] reductase [NADPH] FabI: Enoyl-[acyl-carrier-protein] reductase [NADPH] FabI (Staphylococcus aureus, UniProt Q6GI75)
# T1: RNA aptamer optimized Class I; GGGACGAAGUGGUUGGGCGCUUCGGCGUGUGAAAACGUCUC
# T2: RNA aptamer minimized; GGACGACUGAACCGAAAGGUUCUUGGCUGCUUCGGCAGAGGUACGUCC
Substance,target,test,system,setting,how to read,quantity,value
Cc1ccc(-n2sc(=O)n(Cc3ccc(F)cc3)c2=O)cc1,"Regulator of G-protein signaling 8 (Homo sapiens, UniProt P57771)","Gαo binding, inhibitor, FCPIA after gel filtration",,concentration not given,relative to: vehicle-treated protein,loss of potency after treatment,14 fold
CNc1nc(Cl)nc2c1ncn2[C@@H]1O[C@H](COP(=O)(O)OP(=O)(O)OP(=O)(O)O)[C@@H](O)[C@H]1O.N.N.N.N,GPR17 R283I short isoform,frontal affinity chromatography-MS,mutated receptor IAM column,concentration not given,relative to: wild type column,breakthrough time change,17.1%
CLQL,Protein farnesyltransferase,"enzyme activity, substrate, fluorimetric",peptide,"3 µM, 30 min, added: 9 µM farnesyl diphosphate",relative to: dansyl-GCVLS (set to 1.0),relative fluorescence increase,0
Cc1ccc(S(=O)(=O)N2CCC2=O)cc1,"Erythronolide synthase EryA2, module 3 ACP, holo (eryA, Saccharopolyspora erythraea, UniProt Q03132)","substrate, LC-MS of tryptic digest",,"10 equivalents, 1 h, pH 7, room temperature",,phosphopantetheine acylation,~80%
O=c1cc(-c2cccc(O)c2)oc2cc(O)c(O)cc12,UGT1A9,substrate,,"pH 7.4, 37 °C",,Vmax,2330 pmol/mg/min
O=C(NCc1ccc(CNS(=O)(=O)c2cccc(C(F)(F)F)c2)cc1)c1ccc(CNc2ncccn2)cc1,CXCR4,"binding, competitive inhibitor, competitive binding",MDA-MB-231,"semi-quantitative rhodamine readout, added: biotinylated TN14003",,lowest effective concentration,1000 nM
c1ccc(CN(Cc2ccc(CN(Cc3ccccc3)CC3CC3)cc2)CC2CC2)cc1,CXCR4,"binding, competition binding",MDA-MB-231,"semi-quantitative screen, added: biotinylated TN14003",,lowest effective concentration,1000 nM
CN1CCN(CCCN2c3ccccc3Sc3ccc(Cl)cc32)CC1,SLC10A1,inhibitor,HEK293 expressing NTCP,"100 µM, 5 min, added: taurocholate 10 µM",relative to: no compound,taurocholate uptake,81 ± 2.5%
Cn1cc(-c2ccncc2)c(-c2ccc(OCc3ccc4ccccc4n3)cc2)n1,"Phosphodiesterase 10A (Macaca mulatta, UniProt H9FP16)",PET,"rhesus monkey, striatum","intravenous, 50% target occupancy",,ID50,0.3 µmol/kg
O=C(CCCCCCC(=O)Nc1ccccc1)NO,"Histone deacetylase 8 (HDAC8, Homo sapiens, UniProt Q9BY41)",ITC in four buffers,,"concentration not given, pH 7.5",,protons released on binding,0.73 protons per ligand
CCC/C=C/COC(C)=O,Chilo suppressalis CSP2,"binding, competitive ligand, fluorescence competitive binding",,"highest concentration tested, pH 7.4, protein 2 µM, added: 1-NPN 2 µM",relative to: no ligand,remaining 1-NPN fluorescence,75.6 ± 1.12%
Nc1nc2c(ncn2[C@@H]2O[C@H](COP(=O)(O)OP(=O)(O)OP(=O)(O)O)[C@@H](O)[C@H]2O)c(=O)[nH]1,"T1, RNA aptamer optimized Class I",ultrafiltration,,"apparent, added: GTP",,Kd,76 nM
CC(=O)N[C@@H](Cc1ccccc1)C(=O)N[C@@H](CO)C(=O)N[C@H](C(=O)N[C@@H](CC(=O)O)C(=O)N[C@@H](Cc1ccc(OP(=O)(O)O)cc1)C(=O)NCC(=O)N[C@@H](CCC(=O)O)C(=O)N[C@@H](CC(C)C)C(=O)N[C@@H](CC(=O)O)C(=O)N[C@@H](Cc1ccccc1)C(=O)N[C@@H](CCC(N)=O)C(N)=O)C(C)C,"Tyrosine-protein phosphatase non-receptor type 11, N-SH2 domain (PTPN11, Homo sapiens, UniProt Q06124)",peptide binding,,"concentration not given, 298 K",,conformational entropy change,-32.6 J/(mol·K)
N#Cc1ccccc1Oc1ccc(Br)cc1O,Enoyl-[acyl-carrier-protein] reductase [NADPH] FabI,"enzyme activity, inhibitor, progress curve kinetics",,,,dissociation rate constant,0.28 h⁻¹
O=C(Cn1ccc2ccccc21)N(c1ccc(F)cc1)c1ccc(F)cc1,"Proteasome subunit alpha type-2/Proteasome subunit alpha type-6, 20S proteasome (Homo sapiens, UniProt P25787+P60900)","proteolysis, activator, fluorogenic peptide",purified 20S proteasome,"up to 30 µM, added: Suc-LLVY-AMC, Z-LLE-AMC, Boc-LRR-AMC",relative to: vehicle,maximum fold increase,4.4
CPIL,Protein farnesyltransferase,"enzyme activity, substrate, fluorimetric",peptide,"3 µM, 30 min, added: 9 µM farnesyl diphosphate",relative to: dansyl-GCVLS (set to 1.0),relative fluorescence increase,< 0.05
Cc1cc2nc3c(=O)[nH]c(=O)nc-3n(C[C@H](O)[C@H](O)[C@H](O)CO)c2cc1C,"Riboflavin-binding protein (Gallus gallus, UniProt P02752)","riboflavin release, fluorescence",,"native holoprotein, added: guanidine hydrochloride 6 M",,koff,0.0131 ± 0.0001 s⁻¹
CC[C@H](C)[C@H](NC(=O)[C@H](CC(C)C)NC(=O)[C@H](CCCNC(=N)N)NC(=O)[C@H](Cc1c[nH]cn1)NC(=O)[C@@H](NC(=O)[C@H](CCCNC(=N)N)NC(=O)[C@@H]1CCCN1C(=O)[C@@H](NC(=O)[C@H](CCC(N)=O)NC(=O)CN)C(C)C)[C@@H](C)O)C(=O)N[C@H](C(=O)N[C@@H](CC(C)C)C(=O)N[C@@H](C)C(=O)N[C@@H](CC(=O)O)C(=O)N[C@@H](Cc1c[nH]cn1)C(=O)N[C@@H](C)C(=O)N[C@@H](CS)C(=O)N[C@@H](CCC(N)=O)C(=O)N[C@H](C(=O)N[C@H](C(=O)N[C@H](C(=O)N[C@@H](CCC(N)=O)C(=O)N[C@@H](CC(=O)O)C(=O)N[C@@H](Cc1ccccc1)C(=O)N[C@@H](C)C(=O)N[C@@H](CCCNC(=N)N)C(=O)O)[C@@H](C)O)[C@@H](C)CC)[C@@H](C)CC)[C@@H](C)O,"Nuclear receptor subfamily 1 group D member 1 (NR1D1, Homo sapiens, UniProt P20393)","NCoR peptide binding, competitor, TR-FRET",,"1 h, added: labelled NCoR 2040-2065 peptide",relative to: mutant over wild-type peptide,IC50 fold change,229
O=c1ccn([C@@H]2O[C@H](COP(=O)([O-])OP(=O)([O-])[O-])[C@@H](O)[C@H]2O)c(=O)[nH]1.[Na+].[Na+].[Na+],GPR17 R283I short isoform,frontal affinity chromatography-MS,mutated receptor IAM column,concentration not given,relative to: wild type column,breakthrough time change,-20.1%
CCCC/C=C\CCCCCCCCCCCC=O,"chemosensory protein 1 (Chilo suppressalis, UniProt V9PY22)","binding, competitive ligand, fluorescence competitive binding",,"highest concentration tested, pH 7.4, protein 2 µM, added: 1-NPN 2 µM",relative to: no ligand,remaining 1-NPN fluorescence,51.1 ± 1.62%
COC(=O)C1=C(C)NC(C)=C(C(=O)OCCN(C)Cc2ccccc2)C1c1cccc([N+](=O)[O-])c1 (stereo not drawn),SLC10A1,inhibitor,HEK293 expressing NTCP,"100 µM, 5 min, added: taurocholate 10 µM",relative to: no compound,taurocholate uptake,81.8 ± 6.5%
CC[C@H](C)C(=O)O[C@H]1C[C@@H](C)C=C2C=C[C@H](C)[C@H](CC[C@@H]3C[C@@H](O)CC(=O)O3)[C@H]21,"3-hydroxy-3-methylglutaryl-coenzyme A reductase (HMGCR, Homo sapiens, UniProt P04035)",Western blot,HepG2,"1 µM, 16 h",relative to: untreated control,remaining protein level,266 ± 29%
CN(C)c1ccc2c(-c3ccc(C(=O)O)cc3C(=O)[O-])c3ccc(=[N+](C)C)cc-3oc2c1,"T2, RNA aptamer minimized",fluorescence quenching titration,,"pH 7.5, 25 °C, NaCl 15 mM, no Mg2+",,Kd,516 nM
CCCN(CCC)S(=O)(=O)c1ccc(C(=O)O)cc1,SLC10A1,inhibitor,HEK293 expressing NTCP,"100 µM, 5 min, added: taurocholate 10 µM",relative to: no compound,taurocholate uptake,86.8 ± 3.3%
CNc1ncnc2c1ncn2[C@H]1C[C@H](OP(=O)(O)O)[C@@H](COP(=O)(O)O)O1.N.N,GPR17 R283I short isoform,frontal affinity chromatography-MS,mutated receptor IAM column,concentration not given,relative to: wild type column,breakthrough time change,-4.1%
CC(=O)N[C@@H](Cc1ccccc1)C(=O)N[C@@H](Cc1ccccc1)C(=O)N[C@@H](COP(=O)(O)O)C(=O)N1CCC[C@H]1C(=O)N[C@@H](CCCNC(=N)N)C(N)=O,"Peptidyl-prolyl cis-trans isomerase NIMA-interacting 1, PPIase domain (PIN1, Homo sapiens, UniProt Q13526)","13C CPMG relaxation dispersion, measured: P4-Cα and F1-Cα",,,,minor state population,~1%
N#Cc1ccccc1Oc1ccc(Cl)cc1O,Enoyl-[acyl-carrier-protein] reductase [NADPH] FabI,"enzyme activity, inhibitor, progress curve kinetics",,,,dissociation rate constant,0.44 ± 0.02 h⁻¹
CN(Cc1cccc(CN(C)Cc2ccccc2F)n1)Cc1ccccc1F,CXCR4,"binding, competition binding",MDA-MB-231,"semi-quantitative screen, added: biotinylated TN14003",,lowest effective concentration,1000 nM
O=[N+]([O-])c1ccc(OP(=O)(O)O)cc1,"Tyrosine-protein phosphatase non-receptor type 1 (PTPN1, Homo sapiens, UniProt P18031)",substrate,,"pH 7.4, catalytic domain",,kcat,18 ± 1 s⁻¹
CHAL,Protein farnesyltransferase,"enzyme activity, substrate, fluorimetric",peptide,"3 µM, 30 min, added: 9 µM farnesyl diphosphate",relative to: dansyl-GCVLS (set to 1.0),relative fluorescence increase,0
COc1cc(-c2oc3cc(O)cc(O)c3c(=O)c2O)ccc1O,UGT1A9,substrate,,"pH 7.4, 37 °C",,Vmax,12000 pmol/mg/min
C[C@H]1C[C@@H]2[C@H]([C@@H](O)C[C@@]3(C)[C@H]2CC[C@]3(O)C(=O)CO)[C@@]2(C)C=CC(=O)C=C12,SLC10A1,inhibitor,HEK293 expressing NTCP,"100 µM, 5 min, added: taurocholate 10 µM",relative to: no compound,taurocholate uptake,79.5 ± 3.5%
CCCC/C=C\CCCCCCCCCC=O,Chilo suppressalis CSP2,"binding, competitive ligand, fluorescence competitive binding",,"highest concentration tested, pH 7.4, protein 2 µM, added: 1-NPN 2 µM",relative to: no ligand,remaining 1-NPN fluorescence,28.6 ± 0.52%
C[C@H](NC(=O)[C@H](Cc1ccccc1)NC(=O)[C@@H](NC(=O)[C@H](CCC(=O)O)NC(=O)[C@H](C)NC(=O)[C@H](CCCNC(=N)N)N(C)C(=O)[C@@H]1CCCN1C(=O)[C@H](CCCNC(=N)N)NC(=O)CNC(=O)c1ccc2c(c1)C1(OC2=O)c2ccc(O)cc2Oc2cc(O)ccc21)[C@@H](C)O)C(=O)N[C@@H](CCC(=O)O)C(=O)NCC(N)=O,"RAC-alpha serine/threonine-protein kinase (AKT1, Homo sapiens, UniProt P31749)","substrate, CE-LIF",,"25 µM, pH 7.0, 30 °C, enzyme 6 nM, added: ATP 1 mM",,time to half phosphorylation,679 min
Cc1ccc(C(Nc2ccc(C(=O)O)cc2)c2ccc3cccnc3c2O)cc1 (stereo not drawn),"CAAX prenyl protease 2 (Homo sapiens, UniProt Q9Y256)","enzyme activity, inhibitor",,10 µM,,remaining activity,23 to 32%
CCCCc1ncc(/C=C(\Cc2cccs2)C(=O)O)n1Cc1ccc(C(=O)O)cc1,SLC10A1,inhibitor,HEK293 expressing NTCP,"100 µM, 5 min, added: taurocholate 10 µM",relative to: no compound,taurocholate uptake,99.9 ± 0.7%
Cc1ccc(S(=O)(=O)NCc2ccc(CNC(=O)c3ccc(F)cn3)cc2)cc1,CXCR4,"binding, competitor, rhodamine fluorescence",MDA-MB-231,"semi-quantitative screen, added: biotinylated TN14003",,lowest effective concentration,1000 nM
CSQL,Protein farnesyltransferase,"enzyme activity, substrate, fluorimetric",peptide,"3 µM, 30 min, added: 9 µM farnesyl diphosphate",relative to: dansyl-GCVLS (set to 1.0),relative fluorescence increase,0
CC=CC=CCO,Chilo suppressalis CSP2,"binding, competitive fluorescence displacement",,"30 µM, pH 7.4",,fluorescence intensity,46.2 ± 0.83%
O=C(NCc1ccc(F)cc1)C1CCN(S(=O)(=O)c2cc(Cl)cc(Cl)c2)CC1,"Na(+)/citrate cotransporter (Homo sapiens, UniProt Q86YT5)",citrate uptake,HepG2,"10 µM, 24 h after washout, added: 10 mM LiCl",relative to: untreated,remaining activity,18%
CQLL,Protein farnesyltransferase,"enzyme activity, substrate, fluorimetric",peptide,"3 µM, 30 min, added: 9 µM farnesyl diphosphate",relative to: dansyl-GCVLS (set to 1.0),relative fluorescence increase,0
CC1=CC[C@H](C(C)C)C=C1,Chilo suppressalis CSP2,"binding, competitive fluorescence displacement",,"30 µM, pH 7.4",,fluorescence intensity,59.8 ± 1.14%

# Repeated from above:
Substance,target,test,system,setting,how to read,quantity,value
N#Cc1ccccc1Oc1ccc(Cl)cc1O,Enoyl-[acyl-carrier-protein] reductase [NADPH] FabI,"enzyme activity, inhibitor, progress curve kinetics",,,,dissociation rate constant,0.44 ± 0.02 h⁻¹
Cn1cc(-c2ccncc2)c(-c2ccc(OCc3ccc4ccccc4n3)cc2)n1,"Phosphodiesterase 10A (Macaca mulatta, UniProt H9FP16)",PET,"rhesus monkey, striatum","intravenous, 50% target occupancy",,ID50,0.3 µmol/kg
N#Cc1ccccc1Oc1ccc(Br)cc1O,Enoyl-[acyl-carrier-protein] reductase [NADPH] FabI,"enzyme activity, inhibitor, progress curve kinetics",,,,dissociation rate constant,0.28 h⁻¹
Cc1cc2nc3c(=O)[nH]c(=O)nc-3n(C[C@H](O)[C@H](O)[C@H](O)CO)c2cc1C,"Riboflavin-binding protein (Gallus gallus, UniProt P02752)","riboflavin release, fluorescence",,"native holoprotein, added: guanidine hydrochloride 6 M",,koff,0.0131 ± 0.0001 s⁻¹
Cc1ccc(S(=O)(=O)NCc2ccc(CNC(=O)c3ccc(F)cn3)cc2)cc1,CXCR4,"binding, competitor, rhodamine fluorescence",MDA-MB-231,"semi-quantitative screen, added: biotinylated TN14003",,lowest effective concentration,1000 nM
c1ccc(CN(Cc2ccc(CN(Cc3ccccc3)CC3CC3)cc2)CC2CC2)cc1,CXCR4,"binding, competition binding",MDA-MB-231,"semi-quantitative screen, added: biotinylated TN14003",,lowest effective concentration,1000 nM
